Measurements pooled from the literature.
Parts stem from different laboratories: compare values within a part only.
Chain of UniProt Q16816 (whole entry, looked up): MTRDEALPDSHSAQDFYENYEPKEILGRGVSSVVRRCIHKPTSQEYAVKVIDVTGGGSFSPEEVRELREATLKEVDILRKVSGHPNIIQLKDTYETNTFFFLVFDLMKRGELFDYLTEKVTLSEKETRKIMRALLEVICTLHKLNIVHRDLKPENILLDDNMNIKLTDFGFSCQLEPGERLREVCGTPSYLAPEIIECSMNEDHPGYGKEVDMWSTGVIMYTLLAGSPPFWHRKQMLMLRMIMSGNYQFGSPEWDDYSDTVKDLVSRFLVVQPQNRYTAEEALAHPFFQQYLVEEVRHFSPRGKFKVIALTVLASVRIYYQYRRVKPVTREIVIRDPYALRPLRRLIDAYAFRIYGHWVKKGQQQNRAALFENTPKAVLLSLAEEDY
Chain of UniProt P06493 (whole entry, looked up): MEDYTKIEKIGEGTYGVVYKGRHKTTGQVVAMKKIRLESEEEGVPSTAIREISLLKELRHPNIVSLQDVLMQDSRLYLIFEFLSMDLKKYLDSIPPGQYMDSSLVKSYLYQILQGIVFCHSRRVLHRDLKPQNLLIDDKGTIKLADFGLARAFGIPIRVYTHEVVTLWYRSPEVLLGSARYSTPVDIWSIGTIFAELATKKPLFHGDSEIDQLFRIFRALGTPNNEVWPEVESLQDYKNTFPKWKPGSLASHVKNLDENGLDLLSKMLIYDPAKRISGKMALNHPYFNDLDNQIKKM
Chain of UniProt Q96PN8 (whole entry, looked up): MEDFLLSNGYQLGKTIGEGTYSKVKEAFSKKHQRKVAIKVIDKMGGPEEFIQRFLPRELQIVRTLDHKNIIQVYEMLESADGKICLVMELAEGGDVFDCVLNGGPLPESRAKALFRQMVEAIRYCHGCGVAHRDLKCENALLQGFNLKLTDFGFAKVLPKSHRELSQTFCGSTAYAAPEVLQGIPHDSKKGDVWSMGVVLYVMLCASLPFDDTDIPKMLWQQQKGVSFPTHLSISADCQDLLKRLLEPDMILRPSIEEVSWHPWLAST
Chain of UniProt Q9BXA7 (whole entry, looked up): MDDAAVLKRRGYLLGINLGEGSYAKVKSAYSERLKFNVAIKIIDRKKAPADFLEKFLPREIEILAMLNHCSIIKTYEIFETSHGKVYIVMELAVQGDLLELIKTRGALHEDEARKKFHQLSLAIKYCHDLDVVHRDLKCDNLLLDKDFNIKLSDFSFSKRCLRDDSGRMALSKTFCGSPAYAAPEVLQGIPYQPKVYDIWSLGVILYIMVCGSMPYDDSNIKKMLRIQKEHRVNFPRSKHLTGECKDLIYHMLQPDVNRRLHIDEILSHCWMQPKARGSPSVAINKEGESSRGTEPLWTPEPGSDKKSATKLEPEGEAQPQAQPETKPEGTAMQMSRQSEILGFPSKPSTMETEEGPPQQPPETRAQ
Chain of UniProt P07949 (whole entry, unmodified, looked up): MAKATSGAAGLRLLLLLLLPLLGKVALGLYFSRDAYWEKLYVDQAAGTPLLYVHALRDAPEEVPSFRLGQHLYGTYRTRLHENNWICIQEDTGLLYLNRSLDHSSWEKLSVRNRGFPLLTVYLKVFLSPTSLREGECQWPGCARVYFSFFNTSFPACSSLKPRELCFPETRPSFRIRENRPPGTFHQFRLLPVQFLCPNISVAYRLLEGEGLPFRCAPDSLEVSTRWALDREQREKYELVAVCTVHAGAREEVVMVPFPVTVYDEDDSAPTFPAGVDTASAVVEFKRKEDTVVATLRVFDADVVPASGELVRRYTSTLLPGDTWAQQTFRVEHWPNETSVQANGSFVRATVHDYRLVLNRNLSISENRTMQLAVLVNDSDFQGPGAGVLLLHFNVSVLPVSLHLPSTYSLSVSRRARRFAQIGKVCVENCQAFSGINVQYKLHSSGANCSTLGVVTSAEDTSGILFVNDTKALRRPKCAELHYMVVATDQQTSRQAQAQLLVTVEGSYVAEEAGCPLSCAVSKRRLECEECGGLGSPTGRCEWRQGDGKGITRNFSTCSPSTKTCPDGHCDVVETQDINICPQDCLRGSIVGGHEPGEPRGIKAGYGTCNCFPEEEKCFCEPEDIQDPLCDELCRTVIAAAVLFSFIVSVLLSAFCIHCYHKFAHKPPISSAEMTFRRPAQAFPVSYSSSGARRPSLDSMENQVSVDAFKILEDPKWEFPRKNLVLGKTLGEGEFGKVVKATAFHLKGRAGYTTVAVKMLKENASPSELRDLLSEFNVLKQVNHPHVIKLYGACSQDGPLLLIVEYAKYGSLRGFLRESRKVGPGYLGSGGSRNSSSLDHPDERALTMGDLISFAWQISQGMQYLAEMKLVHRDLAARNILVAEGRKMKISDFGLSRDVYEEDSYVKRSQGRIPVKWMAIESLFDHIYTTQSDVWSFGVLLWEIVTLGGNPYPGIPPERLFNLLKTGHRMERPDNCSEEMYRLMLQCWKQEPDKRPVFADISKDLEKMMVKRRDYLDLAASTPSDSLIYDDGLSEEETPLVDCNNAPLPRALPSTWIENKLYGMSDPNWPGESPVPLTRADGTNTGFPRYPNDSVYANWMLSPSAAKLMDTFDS
Chain of UniProt Q96D53 (whole entry, looked up): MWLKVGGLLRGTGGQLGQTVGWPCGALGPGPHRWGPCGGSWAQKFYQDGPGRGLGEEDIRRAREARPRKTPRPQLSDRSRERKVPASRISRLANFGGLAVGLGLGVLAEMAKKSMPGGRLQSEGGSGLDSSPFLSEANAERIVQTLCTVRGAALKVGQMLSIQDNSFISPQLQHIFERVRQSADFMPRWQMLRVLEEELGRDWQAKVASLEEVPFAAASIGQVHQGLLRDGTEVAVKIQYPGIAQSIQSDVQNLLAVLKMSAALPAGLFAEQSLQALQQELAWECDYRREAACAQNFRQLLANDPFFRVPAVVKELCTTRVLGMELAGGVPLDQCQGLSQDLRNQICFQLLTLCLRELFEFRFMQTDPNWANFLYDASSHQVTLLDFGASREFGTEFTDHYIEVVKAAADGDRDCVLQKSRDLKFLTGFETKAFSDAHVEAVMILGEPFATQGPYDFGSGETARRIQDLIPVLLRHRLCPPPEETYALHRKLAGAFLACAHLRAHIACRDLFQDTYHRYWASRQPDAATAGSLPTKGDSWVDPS
Chain of UniProt Q06187 (whole entry, looked up): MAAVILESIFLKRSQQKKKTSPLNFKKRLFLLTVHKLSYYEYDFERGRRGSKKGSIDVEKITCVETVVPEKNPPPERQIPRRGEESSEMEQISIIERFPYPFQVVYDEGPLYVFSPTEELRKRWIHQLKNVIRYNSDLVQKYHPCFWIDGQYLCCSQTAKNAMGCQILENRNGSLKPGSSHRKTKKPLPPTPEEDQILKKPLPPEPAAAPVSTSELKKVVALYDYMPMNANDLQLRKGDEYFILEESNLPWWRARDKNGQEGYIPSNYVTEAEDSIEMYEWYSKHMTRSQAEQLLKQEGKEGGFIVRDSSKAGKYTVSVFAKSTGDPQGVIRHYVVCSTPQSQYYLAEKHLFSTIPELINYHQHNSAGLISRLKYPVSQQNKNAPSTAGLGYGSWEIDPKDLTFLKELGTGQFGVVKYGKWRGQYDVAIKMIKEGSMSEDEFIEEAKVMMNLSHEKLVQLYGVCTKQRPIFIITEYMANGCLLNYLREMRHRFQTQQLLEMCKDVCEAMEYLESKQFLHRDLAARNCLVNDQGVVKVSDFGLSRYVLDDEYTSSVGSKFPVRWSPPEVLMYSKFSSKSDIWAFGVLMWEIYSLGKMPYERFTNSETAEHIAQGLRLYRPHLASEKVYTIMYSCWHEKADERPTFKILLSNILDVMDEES
Chain of UniProt Q15418 (whole entry, looked up): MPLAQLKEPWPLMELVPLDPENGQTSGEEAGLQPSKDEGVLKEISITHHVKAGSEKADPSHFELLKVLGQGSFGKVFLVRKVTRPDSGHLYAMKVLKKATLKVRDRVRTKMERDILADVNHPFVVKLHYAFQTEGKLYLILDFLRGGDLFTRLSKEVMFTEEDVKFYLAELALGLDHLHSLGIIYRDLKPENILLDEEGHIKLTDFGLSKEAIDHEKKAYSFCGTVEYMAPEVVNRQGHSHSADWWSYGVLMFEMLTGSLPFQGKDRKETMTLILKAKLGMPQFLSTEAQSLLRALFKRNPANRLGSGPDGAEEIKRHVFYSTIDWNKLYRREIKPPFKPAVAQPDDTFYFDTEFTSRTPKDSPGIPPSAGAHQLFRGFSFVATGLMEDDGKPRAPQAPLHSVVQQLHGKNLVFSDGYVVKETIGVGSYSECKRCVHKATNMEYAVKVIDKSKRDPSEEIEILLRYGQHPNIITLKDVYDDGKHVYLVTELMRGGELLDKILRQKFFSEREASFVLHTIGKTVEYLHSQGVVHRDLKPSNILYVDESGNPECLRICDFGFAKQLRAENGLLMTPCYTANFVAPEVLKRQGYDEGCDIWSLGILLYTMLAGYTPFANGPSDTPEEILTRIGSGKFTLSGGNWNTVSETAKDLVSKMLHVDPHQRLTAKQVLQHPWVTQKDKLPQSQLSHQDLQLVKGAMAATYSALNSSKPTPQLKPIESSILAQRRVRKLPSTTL
Chain of UniProt P41240 (whole entry, looked up): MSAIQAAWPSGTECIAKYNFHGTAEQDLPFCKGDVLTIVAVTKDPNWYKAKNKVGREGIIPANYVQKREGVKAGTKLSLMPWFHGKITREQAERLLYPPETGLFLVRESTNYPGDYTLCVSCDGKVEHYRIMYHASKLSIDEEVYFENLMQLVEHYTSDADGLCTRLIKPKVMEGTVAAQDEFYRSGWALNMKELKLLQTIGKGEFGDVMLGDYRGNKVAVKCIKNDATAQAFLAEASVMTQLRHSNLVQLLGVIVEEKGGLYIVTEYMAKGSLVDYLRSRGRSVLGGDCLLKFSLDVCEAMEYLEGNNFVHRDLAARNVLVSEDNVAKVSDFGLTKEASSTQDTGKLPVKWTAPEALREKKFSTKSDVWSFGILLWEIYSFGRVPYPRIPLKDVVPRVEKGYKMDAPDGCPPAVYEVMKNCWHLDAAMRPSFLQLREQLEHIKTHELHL

Block 1
Target: Prothrombin, mature alpha-thrombin (F2, Homo sapiens, UniProt P00734)
Method: aptamer microarray, sandwich
Molecule type: DNA with 2'F-ANA
Matrix: in vitro
Tested at: 200 nM
Setting: whole 15-mer aptamer, many near background
Added: Cy3 exosite-II aptamer, 400 nM
Reading: higher = stronger binding
Oligonucleotide: GGTTGGTGTGGTTGG
Modification	mean fluorescence intensity [a.u.]
2'F-ANA at 1 3 8 9 10 11 15	78.9
2'F-ANA at 4 5 6 7 8 9 10 13 15	47.8
2'F-ANA at 1 4 5 7 11 12 14	44.3
2'F-ANA at 1 5 6 7 9 12 14 15	43.9
2'F-ANA at 2 3 6 7 10 14 15	256
2'F-ANA at 2 3 6 9 14 15	336
2'F-ANA at 1 3 6 7 8 10 12 15	120
2'F-ANA at 1 3 9 10 11 14	56.7

Block 2
Structure (SMILES): CC(=O)N1CCC(c2ccc(C(=O)NC3=NCCN3)cc2C(F)(F)F)CC1
Effect on: cell-free assay
Method: competition with immobilised ligand
Tested at: 1 µM
target	remaining binding [%]
Serine/threonine-protein kinase NIM1 (NIM1K, Homo sapiens, UniProt Q8IY84)	100
Rhodopsin kinase GRK7 (GRK7, Homo sapiens, UniProt Q8WTQ7)	87
Serine/threonine-protein kinase mTOR (MTOR, Homo sapiens, UniProt P42345)	67
Calcium/calmodulin-dependent protein kinase kinase 1 (CAMKK1, Homo sapiens, UniProt Q8N5S9)	100
Hormonally up-regulated neu tumor-associated kinase (HUNK, Homo sapiens, UniProt P57058)	100
Phosphatidylinositol 4,5-bisphosphate 3-kinase catalytic subunit alpha isoform (PIK3CA, Homo sapiens, UniProt P42336)	100
Testis-specific serine/threonine-protein kinase 1 (TSSK1B, Homo sapiens, UniProt Q9BXA7)	100
Proto-oncogene tyrosine-protein kinase receptor Ret (RET, Homo sapiens, UniProt P07949, V804L)	100
Fibroblast growth factor receptor 3 (FGFR3, Homo sapiens, UniProt P22607, G697C)	87
Tyrosine-protein kinase BTK (BTK, Homo sapiens, UniProt Q06187)	97
Testis-specific serine/threonine-protein kinase 3 (TSSK3, Homo sapiens, UniProt Q96PN8)	100
Phosphorylase b kinase gamma catalytic chain, skeletal muscle/heart isoform (PHKG1, Homo sapiens, UniProt Q16816)	100
Tyrosine-protein kinase CSK (CSK, Homo sapiens, UniProt P41240)	100
Dual specificity protein kinase CLK3 (CLK3, Homo sapiens, UniProt P49761)	100
Interleukin-1 receptor-associated kinase 4 (IRAK4, Homo sapiens, UniProt Q9NWZ3)	89
Tyrosine-protein kinase Lck (LCK, Homo sapiens, UniProt P06239)	100
Tyrosine-protein kinase ABL1, phosphorylated (ABL1, Homo sapiens, UniProt P00519, T315I)	92
Ribosomal protein S6 kinase alpha-1, C-terminal kinase domain (RPS6KA1, Homo sapiens, UniProt Q15418)	100
Serine/threonine-protein kinase pim-2 (PIM2, Homo sapiens, UniProt Q9P1W9)	100
Mitogen-activated protein kinase kinase kinase 13 (MAP3K13, Homo sapiens, UniProt O43283)	100
Atypical kinase COQ8B, mitochondrial (COQ8B, Homo sapiens, UniProt Q96D53)	97

Block 3
Structure (SMILES): CC(=O)c1ccc(N2CCOCC2)cc1O
Effect on: enzyme activity
Action: inhibitor
Tested at: 0.5 µM
Relative to: control
target	remaining activity
Phosphorylase b kinase gamma catalytic chain, skeletal muscle/heart isoform (PHKG1, Homo sapiens, UniProt Q16816)	96.5%
Serine/threonine-protein kinase 16 (STK16, Homo sapiens, UniProt O75716)	110%
Tyrosine-protein kinase Srms (SRMS, Homo sapiens, UniProt Q9H3Y6)	94.7%
Cyclin-dependent kinase 1, with cyclin B (CDK1, Homo sapiens, UniProt P06493)	86.8%
Testis-specific serine/threonine-protein kinase 2 (TSSK2, Homo sapiens, UniProt Q96PF2)	102%

Block 4
Target: Runt-related transcription factor 1, full length (RUNX1, Homo sapiens, UniProt Q01196-8, residues 1-480)
Method: protein-binding microarray
Molecule type: hairpin DNA
Matrix: in vitro
Tested at: not given
Setting: whole hairpin DNA, median over replicate spots
Relative to: not given
Reading: higher = stronger binding
Oligonucleotide	median fluorescence [a.u.]
GAGGCCCAACCGCGACAGCCTCCTGGCTGTCGCGGTTGGGCCTCACACTC (5mC at 13 31)	5600
CTCAGTTCTGTGGGTTGGACTCCTGTCCAACCCACAGAACTGAGACACTC	2420
GAGGCCGGTTGTGGTTGGCCTCCTGGCCAACCACAACCGGCCTCACACTC (5mC at 38)	3620
GAGGCCTGTCGCGGTTGGCCTCCTGGCCAACCGCGACAGGCCTCACACTC (5mC at 34)	2760
GAGGCCTGTTGCGGTAGGCCTCCTGGCCTACCGCAACAGGCCTCACACTC	2940
GAGGCCTGGTGTGGTTGGCCTCCTGGCCAACCACACCAGGCCTCACACTC (5mC at 36)	2380
GAGGCCTGTTGCGGTTGGCCTCCTGGCCAACCGCAACAGGCCTCACACTC (5mC at 32)	2000
GAGGCCTCGTGCGGTTGGCCTCCTGGCCAACCGCACGAGGCCTCACACTC (5mC at 8 36)	2990

For quick reference, copied from above (block 2):
target	remaining binding [%]
Serine/threonine-protein kinase NIM1 (NIM1K, Homo sapiens, UniProt Q8IY84)	100
Rhodopsin kinase GRK7 (GRK7, Homo sapiens, UniProt Q8WTQ7)	87
Serine/threonine-protein kinase mTOR (MTOR, Homo sapiens, UniProt P42345)	67
Calcium/calmodulin-dependent protein kinase kinase 1 (CAMKK1, Homo sapiens, UniProt Q8N5S9)	100
Hormonally up-regulated neu tumor-associated kinase (HUNK, Homo sapiens, UniProt P57058)	100
